Experimental data collected from several papers.
Numbered parts are unrelated; each lists some results of a single study.
Chain of UniProt P00519 (whole entry, unmodified, looked up): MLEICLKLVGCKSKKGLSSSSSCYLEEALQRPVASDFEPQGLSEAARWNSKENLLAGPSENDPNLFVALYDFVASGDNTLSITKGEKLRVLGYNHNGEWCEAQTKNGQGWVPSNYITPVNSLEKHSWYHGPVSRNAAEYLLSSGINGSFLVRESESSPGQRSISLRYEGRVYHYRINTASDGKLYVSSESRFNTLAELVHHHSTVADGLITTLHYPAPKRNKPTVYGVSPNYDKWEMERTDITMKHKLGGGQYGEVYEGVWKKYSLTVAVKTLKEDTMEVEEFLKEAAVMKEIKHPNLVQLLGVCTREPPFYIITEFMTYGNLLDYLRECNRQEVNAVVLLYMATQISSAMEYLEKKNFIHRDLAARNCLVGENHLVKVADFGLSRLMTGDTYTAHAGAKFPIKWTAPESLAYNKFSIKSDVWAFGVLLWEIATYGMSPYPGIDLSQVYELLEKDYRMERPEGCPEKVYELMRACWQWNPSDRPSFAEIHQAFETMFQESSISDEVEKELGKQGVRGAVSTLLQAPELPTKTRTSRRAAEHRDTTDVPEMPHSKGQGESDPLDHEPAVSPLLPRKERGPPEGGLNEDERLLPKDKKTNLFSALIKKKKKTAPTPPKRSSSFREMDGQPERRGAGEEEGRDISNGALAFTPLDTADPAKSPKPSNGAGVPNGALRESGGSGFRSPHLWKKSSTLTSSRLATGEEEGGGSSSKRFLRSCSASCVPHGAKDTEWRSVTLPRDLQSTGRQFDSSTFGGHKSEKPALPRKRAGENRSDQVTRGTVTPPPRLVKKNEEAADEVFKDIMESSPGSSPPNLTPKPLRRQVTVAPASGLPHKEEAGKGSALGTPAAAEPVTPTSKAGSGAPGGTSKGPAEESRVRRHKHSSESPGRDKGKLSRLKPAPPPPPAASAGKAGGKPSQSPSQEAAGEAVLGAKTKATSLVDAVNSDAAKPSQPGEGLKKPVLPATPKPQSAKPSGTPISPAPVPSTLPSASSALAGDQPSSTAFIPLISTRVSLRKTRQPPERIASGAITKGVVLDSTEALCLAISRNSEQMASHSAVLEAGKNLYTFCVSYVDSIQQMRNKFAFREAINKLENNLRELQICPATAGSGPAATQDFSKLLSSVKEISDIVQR
Chain of UniProt Q99640 (whole entry, looked up): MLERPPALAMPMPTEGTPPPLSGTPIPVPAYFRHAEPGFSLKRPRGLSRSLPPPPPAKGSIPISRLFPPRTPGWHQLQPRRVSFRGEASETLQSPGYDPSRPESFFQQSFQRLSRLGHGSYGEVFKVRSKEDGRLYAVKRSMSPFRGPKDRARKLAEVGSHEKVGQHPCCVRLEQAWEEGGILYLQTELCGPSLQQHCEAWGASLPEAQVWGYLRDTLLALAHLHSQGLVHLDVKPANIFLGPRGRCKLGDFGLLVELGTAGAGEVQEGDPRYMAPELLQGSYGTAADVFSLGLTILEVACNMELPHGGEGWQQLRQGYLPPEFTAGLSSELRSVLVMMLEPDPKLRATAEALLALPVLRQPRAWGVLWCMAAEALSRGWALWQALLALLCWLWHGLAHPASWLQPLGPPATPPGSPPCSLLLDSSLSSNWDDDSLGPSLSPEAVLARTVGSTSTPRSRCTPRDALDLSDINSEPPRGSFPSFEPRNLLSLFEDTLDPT
Chain of UniProt P29320 (whole entry, looked up): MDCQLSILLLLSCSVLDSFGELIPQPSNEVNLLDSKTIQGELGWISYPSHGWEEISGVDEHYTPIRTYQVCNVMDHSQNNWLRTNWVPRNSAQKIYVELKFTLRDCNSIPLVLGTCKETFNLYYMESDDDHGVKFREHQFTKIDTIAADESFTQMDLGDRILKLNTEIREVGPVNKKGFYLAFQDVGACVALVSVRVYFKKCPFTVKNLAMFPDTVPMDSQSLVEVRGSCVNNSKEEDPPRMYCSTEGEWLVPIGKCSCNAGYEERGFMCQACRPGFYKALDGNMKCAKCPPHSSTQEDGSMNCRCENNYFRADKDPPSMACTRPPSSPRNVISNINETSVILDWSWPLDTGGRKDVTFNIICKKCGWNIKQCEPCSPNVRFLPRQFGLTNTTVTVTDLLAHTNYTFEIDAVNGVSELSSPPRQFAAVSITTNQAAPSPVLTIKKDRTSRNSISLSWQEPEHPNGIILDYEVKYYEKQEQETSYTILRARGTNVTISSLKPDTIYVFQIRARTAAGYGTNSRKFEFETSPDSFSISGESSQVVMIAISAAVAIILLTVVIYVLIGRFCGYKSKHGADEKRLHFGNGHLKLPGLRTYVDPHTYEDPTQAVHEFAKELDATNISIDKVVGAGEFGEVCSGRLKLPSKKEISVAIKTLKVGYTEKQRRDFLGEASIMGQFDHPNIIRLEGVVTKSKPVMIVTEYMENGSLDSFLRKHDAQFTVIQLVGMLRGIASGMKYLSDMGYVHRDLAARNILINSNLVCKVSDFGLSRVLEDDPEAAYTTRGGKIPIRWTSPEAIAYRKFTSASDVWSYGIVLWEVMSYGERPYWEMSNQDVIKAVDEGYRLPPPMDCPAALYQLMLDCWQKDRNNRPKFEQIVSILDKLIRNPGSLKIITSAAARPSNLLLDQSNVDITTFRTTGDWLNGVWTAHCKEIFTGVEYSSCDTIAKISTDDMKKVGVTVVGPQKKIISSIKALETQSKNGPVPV
Chain of UniProt P10721 (whole entry, looked up): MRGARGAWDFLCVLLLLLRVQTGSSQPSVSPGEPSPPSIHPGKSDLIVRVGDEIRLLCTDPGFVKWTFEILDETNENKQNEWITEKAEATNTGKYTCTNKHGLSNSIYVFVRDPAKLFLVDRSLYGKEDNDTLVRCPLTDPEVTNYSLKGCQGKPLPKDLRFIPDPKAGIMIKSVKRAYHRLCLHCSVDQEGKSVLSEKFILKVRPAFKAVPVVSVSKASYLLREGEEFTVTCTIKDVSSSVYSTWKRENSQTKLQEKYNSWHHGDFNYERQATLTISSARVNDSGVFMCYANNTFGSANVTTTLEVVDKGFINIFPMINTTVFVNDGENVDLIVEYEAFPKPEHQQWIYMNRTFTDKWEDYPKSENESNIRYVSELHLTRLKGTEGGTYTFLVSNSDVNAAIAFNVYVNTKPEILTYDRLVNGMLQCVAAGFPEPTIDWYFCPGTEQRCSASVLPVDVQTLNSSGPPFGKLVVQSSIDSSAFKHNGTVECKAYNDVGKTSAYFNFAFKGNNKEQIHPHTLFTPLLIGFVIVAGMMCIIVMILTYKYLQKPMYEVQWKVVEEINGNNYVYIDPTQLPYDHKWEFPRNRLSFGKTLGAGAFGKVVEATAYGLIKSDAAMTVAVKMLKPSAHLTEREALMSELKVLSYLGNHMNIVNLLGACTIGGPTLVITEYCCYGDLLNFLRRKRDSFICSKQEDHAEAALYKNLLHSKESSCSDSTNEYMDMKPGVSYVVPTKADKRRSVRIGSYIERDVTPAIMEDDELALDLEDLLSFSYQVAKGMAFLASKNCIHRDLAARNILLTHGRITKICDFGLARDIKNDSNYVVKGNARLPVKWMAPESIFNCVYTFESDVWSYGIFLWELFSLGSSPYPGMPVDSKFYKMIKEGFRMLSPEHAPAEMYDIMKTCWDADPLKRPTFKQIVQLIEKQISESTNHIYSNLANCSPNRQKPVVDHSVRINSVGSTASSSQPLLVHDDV
Chain of UniProt P07332 (whole entry, looked up): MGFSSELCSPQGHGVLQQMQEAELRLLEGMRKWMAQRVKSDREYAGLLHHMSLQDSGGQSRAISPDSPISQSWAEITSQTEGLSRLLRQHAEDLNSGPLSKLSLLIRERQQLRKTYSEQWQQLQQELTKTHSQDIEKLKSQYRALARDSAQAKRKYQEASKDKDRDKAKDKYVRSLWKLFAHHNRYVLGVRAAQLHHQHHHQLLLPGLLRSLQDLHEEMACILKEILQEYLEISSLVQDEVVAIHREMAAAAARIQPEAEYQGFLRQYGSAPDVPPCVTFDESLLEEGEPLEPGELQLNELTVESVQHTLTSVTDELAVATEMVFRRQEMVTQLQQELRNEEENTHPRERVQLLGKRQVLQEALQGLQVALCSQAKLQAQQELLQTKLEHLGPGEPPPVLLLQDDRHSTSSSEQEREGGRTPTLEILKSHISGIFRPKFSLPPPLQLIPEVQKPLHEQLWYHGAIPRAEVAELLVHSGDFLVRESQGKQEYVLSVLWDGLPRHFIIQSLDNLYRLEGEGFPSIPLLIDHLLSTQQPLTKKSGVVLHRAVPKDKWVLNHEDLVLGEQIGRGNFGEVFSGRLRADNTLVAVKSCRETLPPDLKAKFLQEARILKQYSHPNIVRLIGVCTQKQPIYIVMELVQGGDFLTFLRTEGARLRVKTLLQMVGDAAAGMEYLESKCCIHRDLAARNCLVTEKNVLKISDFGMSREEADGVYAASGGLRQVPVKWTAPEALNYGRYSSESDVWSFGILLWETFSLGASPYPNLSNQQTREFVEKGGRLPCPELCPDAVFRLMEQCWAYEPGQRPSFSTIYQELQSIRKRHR

Sample 1 — concentration: 1 µM
SMILES: CN1CCN(C(=O)c2ccc(NC(=O)Nc3ccc(N(C)c4ccnc(Nc5ccc(CS(C)(=O)=O)cc5)n4)cc3)cc2)CC1
STK4 (Homo sapiens, UniProt Q13043); competitive binding panel, measured: MST1; relative to: vehicle — remaining binding: 96%.
The remaining binding was 100% (INSRR (Homo sapiens, UniProt P14616); competitive binding panel; relative to: vehicle).
It gave 8.3% for remaining binding (TIE1 (Homo sapiens, UniProt P35590); competitive binding panel; relative to: vehicle).
For WNK2 (Homo sapiens, UniProt Q9Y3S1); competitive binding panel; relative to: vehicle: remaining binding read 67%.
The remaining binding was 79% (EPHA3 (Homo sapiens, UniProt P29320); competitive binding panel; relative to: vehicle).
PKMYT1 (Homo sapiens, UniProt Q99640); competitive binding panel; relative to: vehicle — remaining binding: 96%.
It gave 20% for remaining binding (ABL1 (Homo sapiens, UniProt P00519, M351T); competitive binding panel; relative to: vehicle).
It gave 35% for remaining binding (KIT (Homo sapiens, UniProt P10721); competitive binding scan; autoinhibited form).

Sample 2 — concentration: 1 µM
Compound: O=C1CCc2cc(Nc3cc(OC4CCOCC4)c([N+](=O)[O-])cc3Cl)ccc2N1
It gave 92% for remaining binding (Tyrosine-protein kinase ABL1, phosphorylated (ABL1, Homo sapiens, UniProt P00519, F317I); binding).
It gave 100% for remaining binding (FES (Homo sapiens, UniProt P07332); cell-free assay, competition with immobilised ligand).
For PRKACA (Homo sapiens, UniProt P17612); cell-free assay, competition with immobilised ligand: remaining binding read 96%.
For EPHA2 (Homo sapiens, UniProt P29317); cell-free assay, competition with immobilised ligand: remaining binding read 75%.
It gave 100% for remaining binding (EGFR (Homo sapiens, UniProt P00533, G719C); cell-free assay, competition with immobilised ligand).

Sample 3 — read-out: enzyme activity; mode: inhibitor; concentration: 0.5 µM; relative to: control
Target: Dual specificity tyrosine-phosphorylation-regulated kinase 4 (DYRK4, Homo sapiens, UniProt Q9NR20)
Chain of UniProt Q9NR20 (whole entry, looked up): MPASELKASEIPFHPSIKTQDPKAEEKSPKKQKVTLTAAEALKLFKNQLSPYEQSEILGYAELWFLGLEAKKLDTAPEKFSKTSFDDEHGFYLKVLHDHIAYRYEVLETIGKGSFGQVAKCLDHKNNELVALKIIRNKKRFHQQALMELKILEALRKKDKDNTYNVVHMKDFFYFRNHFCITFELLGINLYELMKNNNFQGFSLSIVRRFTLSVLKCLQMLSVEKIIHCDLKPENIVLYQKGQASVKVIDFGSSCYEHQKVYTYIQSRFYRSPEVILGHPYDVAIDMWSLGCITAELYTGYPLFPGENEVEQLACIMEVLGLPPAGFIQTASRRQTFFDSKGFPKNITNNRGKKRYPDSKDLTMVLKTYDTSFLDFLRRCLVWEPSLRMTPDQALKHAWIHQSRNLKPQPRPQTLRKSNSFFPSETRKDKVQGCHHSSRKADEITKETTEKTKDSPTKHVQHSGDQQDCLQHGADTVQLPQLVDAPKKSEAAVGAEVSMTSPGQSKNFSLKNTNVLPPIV
C#Cc1cccc(Nc2ncnc3cc(OCCOC)c(OCCOC)cc23)c1 has a remaining activity of 100%.
With COc1ccc(OC)c2c(=S)c3ccccc3[nH]c12 the remaining activity was 107%.
For Cc1ccc(Nc2nccc(N(C)c3ccc4c(C)n(C)nc4c3)n2)cc1S(N)(=O)=O, the remaining activity was 106%.
For Oc1ccc(-c2nc(-c3ccncc3)c(-c3ccc(F)cc3)[nH]2)cc1, the remaining activity was 101%.
For CC(C)[C@H](CO)Nc1nc(Nc2cc(N)cc(Cl)c2)c2ncn(C(C)C)c2n1, the remaining activity was 91.6%.
Nc1ncnc2n[nH]c(Nc3ccc(F)cc3)c12 gave a remaining activity of 104%.
With O=C(Nc1cccc(Nc2cc(Nc3cccc(C(F)(F)F)c3)ncn2)c1)C1CC1 the remaining activity was 98%.
The remaining activity of CO[C@H]1C[C@@H]2CC[C@@H](C)[C@@](O)(O2)C(=O)C(=O)N2CCCC[C@H]2C(=O)O[C@H]([C@H](C)C[C@@H]2CC[C@@H](O)[C@H](OC)C2)CC(=O)[C@H](C)/C=C(\C)[C@@H](O)[C@@H](OC)C(=O)[C@H](C)C[C@H](C)/C=C/C=C/C=C/1C is reported as 99.8%.
CCOC(=O)c1c(C)[nH]c(/C=C2\C(=O)Nc3ccccc32)c1C has a remaining activity of 99.6%.
With OCC(O)CCON=C1C(c2c(O)[nH]c3ccccc23)=Nc2ccccc21 (stereo not drawn) the remaining activity was 100%.
With CNC(=O)c1cc(Oc2ccc(NC(=O)Nc3ccc(Cl)c(C(F)(F)F)c3)cc2)ccn1 the remaining activity was 105%.
With O=C(O)c1ccc2c3c1cccc3c(=O)n1c3ccccc3nc21 the remaining activity was 95.8%.
For Cn1c2ccccc2c2c3c(c4c5ccccc5n(CCC#N)c4c21)CNC3=O, the remaining activity was 95.7%.
With CN(C)c1ccc(C=C2C(=O)Nc3ccccc32)cc1 the remaining activity was 94.8%.
The remaining activity of O=C1NC(=O)C(c2cn(CCCn3ccnc3)c3ccccc23)=C1Nc1ccccc1 is reported as 89%.

Sample 4 — cell line: mouse MPNST tumor cells; method: high-content nuclear imaging; measured: cell number; concentration: 10 µM; time: 12 h; setting: mean of 2 replicates; relative to: plate mean; reading: higher = more cells
CC1(C)C(N)=Nc2cc(OCCCN3Cc4ccc(OCCc5cn(CC(=O)N6CCC(CCN7CCCC7)CC6)nn5)cc4C3)c(OCC3CC3)cc21 gave a nuclei count of 1.55 z-score.
With S=P(N1CC1)(N1CC1)N1CC1 the nuclei count was -0.107 z-score.
Cc1cc(CC(=O)O)n(C)c1C(=O)c1ccc(Cl)cc1 gave a nuclei count of 0.847 z-score.
The nuclei count of CCCCCCCCCCCCc1ccc(S(=O)(=O)Nc2nncs2)cc1 is reported as 0.401 z-score.
For O=C(Nc1ccccc1)c1ccc(NC(=O)c2ccc(Cl)cc2Cl)cc1, the nuclei count was 0.26 z-score.
The nuclei count of N#Cc1cc(NC(=O)C(=O)O)c(Cl)c(NC(=O)C(=O)O)c1 is reported as 1.2 z-score.
The nuclei count of COc1ccccc1Nc1nc(-c2sc(NC(C)=O)nc2C)cs1 is reported as 0.578 z-score.
Cn1c(=O)c2[nH]cnc2n(C)c1=O has a nuclei count of -0.034 z-score.
